Results collected from several papers.
± marks the error that the study gave.
Cell line: RAW264.7
Technique: MTT

CC(=O)O[C@@H]1CC[C@@]2(C)C(CC[C@]3(C)C2C(=O)C=C2C4[C@@H](C)[C@H](C)CC[C@]4(C)CC[C@]23C)[C@@]1(C)C(=O)N/N=C1/C(=O)Nc2ccccc21 (stereo partly drawn)  viability (cell growth or viability; 25 µM, 24 h): 99%
CC(C)=CCc1cc(-c2coc3cc(O)c(CC=C(C)C)c(O)c3c2=O)ccc1O  viability (cell growth or viability; 12.5 µg/mL, 24 h): 151%
Fc1ccccc1NCc1cn(-c2ccccc2)nc1-c1ccc(OCc2ccccc2)cc1  viability (20 µM, 24 h, with: LPS): 65 ± 2.45%
COc1ccc(/C=N\NC(=O)[C@]2(C)C3CC[C@]4(C)C(C(=O)C=C5C6[C@@H](C)[C@H](C)CC[C@]6(C)CC[C@]54C)[C@@]3(C)CC[C@H]2OC(C)=O)cc1OC (stereo partly drawn)  viability (cell growth or viability; 25 µM, 24 h): 86%
O=C1CCNCN1Cc1ccccc1  viability (cell growth or viability; 200 µM, 24 h): 99.5%
C=CCc1ccc(OC(=O)CSc2nnc([C@]3(C)C4CC[C@]5(C)C(C(=O)C=C6C7[C@@H](C)[C@H](C)CC[C@]7(C)CC[C@]65C)[C@@]4(C)CC[C@H]3OC(C)=O)o2)c(OC)c1 (stereo partly drawn)  viability (cell growth or viability; 25 µM, 24 h): 99%
COc1ccc2c3c(oc2c1CC=C(C)C)-c1cc(CC=C(C)C)c(O)cc1OC3  viability (concentration not given): 56.1 ± 2.4%
COc1ccc(-c2coc3c(CC=C(C)C)c(O)c(CC=C(C)C)c(O)c3c2=O)cc1O  viability (cell growth or viability; 6.25 µg/mL, 24 h): 97.2%
Cc1ccc(NCc2cn(-c3ccc(S(N)(=O)=O)cc3)nc2-c2ccc(OCc3ccccc3)cc2)cc1  viability (20 µM, 24 h, 10% FBS, with: LPS): > 90%
CC(C)=CCc1cc([C@@H]2CC(=O)c3ccc(O)c(CC=C(C)C)c3O2)c(O)c(CC=C(C)C)c1O  viability (concentration not given): 12.1 ± 1.1%
CC(C)=CCc1c2c(c(O)c3c(=O)c(-c4ccc(O)cc4)coc13)CC(C(C)(C)O)O2 (stereo not drawn)  viability (cell growth or viability; 50 µg/mL, 24 h): 5.62%
CC(C)=CCc1cc2c(cc1O)OCc1c-2oc2c(CC=C(C)C)c(O)ccc12  viability (concentration not given): 97.3 ± 0.3%
COc1cc2c(cc1O)[C@]1(O)C(=O)c3c(O)cc4c(c3O[C@@H]1CO2)C=CC(C)(C)O4  viability (cell growth or viability; 6.25 µg/mL, 24 h): 109%
COc1c(CC=C(C)C)c(O)cc2c1-c1oc3c(CC=C(C)C)c(O)ccc3c1CO2  viability (concentration not given): 99.4 ± 0.6%
COc1cc(C=O)ccc1OC(=O)COC(=O)[C@]1(C)C2CC[C@]3(C)C(C(=O)C=C4C5[C@@H](C)[C@H](C)CC[C@]5(C)CC[C@]43C)[C@@]2(C)CC[C@H]1OC(C)=O (stereo partly drawn)  viability (cell growth or viability; 25 µM, 24 h): 84%
Clc1ccc(NCc2cn(-c3ccccc3)nc2-c2ccc(OCc3ccccc3)cc2)cc1  viability (20 µM, 24 h, with: LPS): 84 ± 2.41%
COc1ccc(OC)c(/C=N\NC(=O)[C@]2(C)C3CC[C@]4(C)C(C(=O)C=C5C6[C@@H](C)[C@H](C)CC[C@]6(C)CC[C@]54C)[C@@]3(C)CC[C@H]2OC(C)=O)c1 (stereo partly drawn)  viability (cell growth or viability; 25 µM, 24 h): 85%
CC(C)=CCc1cc2c(cc1O)OC[C@H]1c3ccc(O)c(CC=C(C)C)c3O[C@@H]21  viability (concentration not given): 3.3 ± 0.2%
CC(C)[C@@H]1CC[C@@H](C)C[C@H]1O  viability (cell growth or viability; 25 µM, 24 h): 95%
CC(C)=CCc1c(O)c(CC=C(C)C)c2occ(-c3ccc(O)c(O)c3)c(=O)c2c1O  viability (cell growth or viability; 25 µg/mL, 24 h): 34.5%
CC(=O)O[C@@H]1CC[C@@]2(C)C(CC[C@]3(C)C2C(=O)C=C2C4[C@@H](C)[C@H](C)CC[C@]4(C)CC[C@]23C)[C@@]1(C)c1nnc(SCC(=O)Oc2cc(C)ccc2C(C)C)o1 (stereo partly drawn)  viability (cell growth or viability; 25 µM, 24 h): 104%
CC(C)=CCc1c(O)ccc2c1O[C@H]1c3cc4c(cc3OC[C@@H]21)OC(C)(C)C=C4  viability (concentration not given): 3.4 ± 0.1%
CC(=O)O[C@@H]1CC[C@@]2(C)C(CC[C@]3(C)C2C(=O)C=C2C4[C@@H](C)[C@H](C)CC[C@]4(C)CC[C@]23C)[C@@]1(C)C(=O)OCc1cn(CC(=O)OC2CC(C)CCC2C(C)C)nn1 (stereo partly drawn)  viability (cell growth or viability; 25 µM, 24 h): 89%
COc1ccc2c(c1CC=C(C)C)O[C@H]1c3cc(CC=C(C)C)c(O)cc3OC[C@@H]21  viability (concentration not given): 3.1 ± 0.9%

A few entries again:
CC(C)=CCc1c(O)ccc2c1O[C@H]1c3cc4c(cc3OC[C@@H]21)OC(C)(C)C=C4  viability (concentration not given): 3.4 ± 0.1%
CC(=O)O[C@@H]1CC[C@@]2(C)C(CC[C@]3(C)C2C(=O)C=C2C4[C@@H](C)[C@H](C)CC[C@]4(C)CC[C@]23C)[C@@]1(C)C(=O)OCc1cn(CC(=O)OC2CC(C)CCC2C(C)C)nn1 (stereo partly drawn)  viability (cell growth or viability; 25 µM, 24 h): 89%
